Measured values pooled from the literature.
Every numbered part comes from another study and shows a few of its results, in no order. Changes are numbered by the printed parent chain.

Sample 1
Target: CCNA1, cyclin fold, Cln2 fusion (human)
Technique: yeast growth competition, sequencing
Sample: yeast
Notes: weak parent motif
Relative to: not given
Direction: higher = stronger binding
Endpoint: normalised enrichment score
Parent: SAMHD1 docking peptide (human); ASKSRVQLFKDDP
AIKSRVQLFKDDP [S2I]: 0.651
ASKSPVQLFKDDP [R5P]: -0.479
ASKSRVQLFKDAP [D12A]: 0.164
ASFSRVQLFKDDP [K3F]: 0.0176
ASKSRVKLFKDDP [Q7K]: 0.523
ASYSRVQLFKDDP [K3Y]: 0.343
ASKSRVGLFKDDP [Q7G]: 0.202
ASKSRVQLFTDDP [K10T]: 0.275
ASKSRVILFKDDP [Q7I]: -0.0681
ASKSRVQFFKDDP [L8F]: -0.0415
ASKVRVQLFKDDP [S4V]: 1.11
ASKSRVQLFKDPP [D12P]: 0.353
ASKSRVQLFRDDP [K10R]: 0.374
ASKSAVQLFKDDP [R5A]: 0.235
ASKSRAQLFKDDP [V6A]: 0.244

Sample 2
Target: Fragile X messenger ribonucleoprotein 1, C-terminal low-complexity region (Fmr1, Mus musculus, UniProt P35922)
Technique: RNA Bind-n-Seq
Form: RNA
Sample: in vitro
Concentration: 200 nM
Notes: whole 134-nt RNA, ends assumed
Added: 150 mM KCl
Relative to: input library
Direction: higher = stronger binding
Endpoint: log2 enrichment
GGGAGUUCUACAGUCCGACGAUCCAAGUCCUGUGCUACACAUCGUAUGUACCGAAUCGGUUUUUGGAAAAAGGAAAGGAAAGUAUUAUGUUACGCCGUUCGGAUCUGCACUUCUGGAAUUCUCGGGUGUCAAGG: -0.713
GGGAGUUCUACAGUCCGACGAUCGGUAUUCUGCAAGUACUGUAGAUGUUAUAGAAAUGAUGGAGGAUGAUAAAGUUGAUCUGAAUUUGAUUGUUGCCCUCAUCCGAUACAUUGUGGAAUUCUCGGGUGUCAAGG: -1.51
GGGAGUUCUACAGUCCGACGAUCUCAAGUCCUGUGCUACACAUCGUAUGUACCGAAUCGGAAAGGGGAAAGGAAAGGGAAAGUAUUAUGUUACGCCGUUCGGAUCUGCACUUCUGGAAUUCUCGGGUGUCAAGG: -0.689
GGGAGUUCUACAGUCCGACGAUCUGGGUGGUGGAUUUUGUUUAUUUUUUUAGCUCAUUUCCAGGGGUGGGAAUUUUUUUUUAAUAUGUGUCAUGAAUAAAGUUGUUUUUGAAAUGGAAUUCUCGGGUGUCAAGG: 0.38
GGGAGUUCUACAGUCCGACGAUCUAUGGACAAGCAUAAUGGAACAGACAGGUUUGUGAACCAGCAGUUUCAAGAGGAAAAGUUAAAUAAAUUGCAGAAGUUACUUAUUCUUUUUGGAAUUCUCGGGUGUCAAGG: -1.62
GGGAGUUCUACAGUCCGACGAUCUAACUUUAGAGGAGGAUCUGAUGGAUAUGGCAGUGGACGUGGAUUUGGGGAUGGCUAUAAAGGGUAUGGAGGAGGACCUGGAGGUGGCAAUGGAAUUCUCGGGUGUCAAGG: 0.352
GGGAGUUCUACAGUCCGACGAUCCCUGUGCUACACAUCGUAUGUACCGAAUCGGGAAAAAAAGGAAAAAAAGGGAAAAAAAGGAAAGUAUUAUGUUACGCCGUUCGGAUCUGCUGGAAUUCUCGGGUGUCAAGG: -0.682
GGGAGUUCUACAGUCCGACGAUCCUGUGCUACACAUCGUAUGUACCGAAUCGGAAAAAAAGGGGAAAAAAAGGGAAAAAAAGGGGAAAGUAUUAUGUUACGCCGUUCGGAUCUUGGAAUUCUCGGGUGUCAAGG: -0.369
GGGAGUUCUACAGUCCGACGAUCAAGUCCUGUGCUACACAUCGUAUGUACCGAAUCGGGAAAAGGAAAAGGGGAAAAGGGAAAGUAUUAUGUUACGCCGUUCGGAUCUGCACUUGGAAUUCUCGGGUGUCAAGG: -0.21
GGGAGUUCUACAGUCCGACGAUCCCUGUGCUACACAUCGUAUGUACCGAAUCGGGGAAAAAAAGGGGAAAGGGGUUUUUGGGGAAAGUAUUAUGUUACGCCGUUCGGAUCUGCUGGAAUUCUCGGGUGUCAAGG: 0.298
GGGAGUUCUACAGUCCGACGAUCUUCCUCAAGUCCUGUGCUACACAUCGUAUGUACCGAAUCGUGUGUGUGUGUAAAGUAUUAUGUUACGCCGUUCGGAUCUGCACUUCCAGCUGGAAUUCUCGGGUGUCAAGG: -0.15
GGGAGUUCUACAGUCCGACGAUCUGUGGAGGAGACGGCCGACUCGACGCUGUGCCACAUCCUGAACCUGUACCGGCGGGCCACCUGGCUGCACCAGGCGCUGCGGGAGGGCACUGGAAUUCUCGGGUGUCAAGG: -0.917
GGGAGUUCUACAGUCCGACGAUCUUAGGGUCAUGUGAAGGUGGUGCGCUACUUAGUCAAAGAAGUCAAUCAGUUUCCAUCAGAUUCUGAAUGUAUGAGAUACAUAGCAACCAUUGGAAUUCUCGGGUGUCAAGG: -1.48
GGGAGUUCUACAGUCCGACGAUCUCAAGUCCUGUGCUACACAUCGUAUGUACCGAAUCGGGAAAGGGGAAAGGAAAGGAAAGUAUUAUGUUACGCCGUUCGGAUCUGCACUUCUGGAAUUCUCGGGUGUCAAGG: -0.651

Sample 3
Molecule: PhoQ, residues 284 288 289 292 302 303 SLSLLA
Technique: Sort-seq
Refers to: YFP reporter
Sample: E. coli
Notes: PhoQ-PhoP variant library
Added: 10 µM Mg2+
Relative to: high Mg2+ state
Direction: higher = stronger signaling
Endpoint: fold induction
PhoP, residues 12 14 15 18 19 HHYTI (Escherichia coli, UniProt P23836): 10.8
PhoP, residues 12 14 15 18 19 SFCSL (Escherichia coli, UniProt P23836): 95.4
PhoP, residues 12 14 15 18 19 AYFRS (Escherichia coli, UniProt P23836): 11.1

Sample 4
Target: Histone acetyltransferase KAT6A, winged helix 2, GST fusion (KAT6A, Homo sapiens, UniProt Q92794, residues 85-181)
Technique: protein binding microarray
Form: double-stranded DNA, one strand shown
Sample: in vitro
Concentration: not given
Notes: 8-mer, flanks averaged, mean of 2 arrays, mostly near background
Relative to: not given
Direction: higher = stronger binding
Endpoint: E-score
Target sequence (chain): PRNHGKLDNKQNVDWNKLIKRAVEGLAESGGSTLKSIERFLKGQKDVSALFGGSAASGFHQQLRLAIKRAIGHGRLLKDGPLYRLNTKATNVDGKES
AATAGTCC: -0.113
CACGATGG: -0.148
CTGGCCAA: -0.0543
AGCCGATC: 0.149
CCAGTATC: -0.188
CCACTTCC: 0.0237
GGGACCCA: 0.189
AAGTAGGT: -0.158
CAACCACG: -0.142
GGCGAGCC: 0.167
CTTCCGAA: 0.0661

Excerpt of the above (sample 3):
PhoP, residues 12 14 15 18 19 SFCSL (Escherichia coli, UniProt P23836): 95.4
PhoP, residues 12 14 15 18 19 HHYTI (Escherichia coli, UniProt P23836): 10.8
PhoP, residues 12 14 15 18 19 AYFRS (Escherichia coli, UniProt P23836): 11.1
